Measured values of several laboratories.
Each numbered part is a random draw from the data of one study; scales do not carry over between parts. Changes are numbered by the printed parent chain.

Block 1 — method: DHFR PCA, deep sequencing; matrix: yeast; with: (+)-ABA 200 µM; reference: wild-type fitted maximum; reading: higher = stronger binding
Target: ABI1, truncated, D143A, DHFR fusion (Arabidopsis thaliana)
Setting: methotrexate growth selection, single substitutions
Starting sequence: PYL1, truncated, DHFR fusion (Arabidopsis thaliana); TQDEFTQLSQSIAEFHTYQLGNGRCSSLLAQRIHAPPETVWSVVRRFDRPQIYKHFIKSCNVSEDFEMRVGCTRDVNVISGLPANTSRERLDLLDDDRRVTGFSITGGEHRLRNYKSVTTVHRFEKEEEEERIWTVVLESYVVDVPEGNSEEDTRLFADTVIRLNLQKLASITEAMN
Under “relative binding score”, `R49V` is recorded as 84.9%.
`I12A` — result for “relative binding score”: 70.6%.
`F66D` — result for “relative binding score”: 95.7%.
For `Y115C`, “relative binding score” read 12.4%.
`R111H`: “relative binding score” 49.9%.
`A35R` — result for “relative binding score”: 42.1%.
Under “relative binding score”, `T86C` is recorded as 99.3%.
Under “relative binding score”, `R155K` is recorded as 97.6%.
Under “relative binding score”, `Y141M` is recorded as 17.7%.
`V76A` — result for “relative binding score”: 56.5%.
Under “relative binding score”, `E128D` is recorded as 106%.
`W134F`: “relative binding score” 104%.
For `F157W`, “relative binding score” read 13.7%.
For `T160S`, “relative binding score” read 79%.
For `W41A`, “relative binding score” read -13.1%.
Under “relative binding score”, `T106A` is recorded as 72.1%.
`F124Q`: “relative binding score” 95.7%.
`T17Y`: “relative binding score” 79.5%.
Under “relative binding score”, `D95A` is recorded as 55.8%.
`V43A` — result for “relative binding score”: 73.6%.
`M68S`: “relative binding score” 87.5%.
Under “relative binding score”, `T173Q` is recorded as 35.8%.
Under “relative binding score”, `T119M` is recorded as 94.1%.

Block 2 — target: CCND2, cyclin fold, Cln2 fusion (human); method: yeast growth competition, sequencing; matrix: yeast; setting: weak parent motif; reference: not given; reading: higher = stronger binding
Starting sequence: CDKN1B docking peptide (human); PSACRNLFGPVDH
For `H13K`, “normalised enrichment score” read 0.191.
Under “normalised enrichment score”, `S2A` is recorded as 0.0946.
`A3R` — result for “normalised enrichment score”: -0.014.
`R5D`: “normalised enrichment score” 0.172.
`N6R`: “normalised enrichment score” 0.206.
`H13V`: “normalised enrichment score” -0.0593.
`D12T`: “normalised enrichment score” 0.468.
`F8R` — result for “normalised enrichment score”: 0.193.
Under “normalised enrichment score”, `S2Q` is recorded as -0.121.
Under “normalised enrichment score”, `N6Q` is recorded as 0.363.
`D12W` — result for “normalised enrichment score”: 0.246.
`V11C`: “normalised enrichment score” -0.00446.
For `S2R`, “normalised enrichment score” read 0.188.
`P10F`: “normalised enrichment score” 0.145.
`V11G` — result for “normalised enrichment score”: 0.303.
For `R5V`, “normalised enrichment score” read -0.0464.
`F8G`: “normalised enrichment score” -0.298.
Under “normalised enrichment score”, `P1S` is recorded as -0.0311.
Under “normalised enrichment score”, `N6M` is recorded as 0.214.
Under “normalised enrichment score”, `A3T` is recorded as 0.13.
`R5M` — result for “normalised enrichment score”: 0.248.
`L7I` — result for “normalised enrichment score”: 0.498.
For `D12G`, “normalised enrichment score” read 0.278.
Under “normalised enrichment score”, `P10E` is recorded as 0.196.
Under “normalised enrichment score”, `L7C` is recorded as -0.346.

Block 3 — method: RNA Bind-n-Seq; form: RNA; matrix: in vitro; tested at: 200 nM; setting: whole 134-nt RNA, ends assumed; with: 150 mM KCl; reference: input library; reading: higher = stronger binding
Target: Fragile X messenger ribonucleoprotein 1, C-terminal low-complexity region (Fmr1, Mus musculus, UniProt P35922)
`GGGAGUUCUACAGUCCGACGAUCCACAGACAACACGCACCCACACAGACACAGAGGGAAGGGGUUGGGAAGGGGACAGGGUGCACAGCAGGGCGGGGUAGGACCCCAGCCCCUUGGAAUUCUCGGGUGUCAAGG` gave a log2 enrichment of 1.12.
The log2 enrichment of `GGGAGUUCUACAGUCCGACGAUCGUCCUGUGCUACACAUCGUAUGUACCGAAUCGGAAAAAAAGGUUUUUGGAAAAAAAGGAAAGUAUUAUGUUACGCCGUUCGGAUCUGCACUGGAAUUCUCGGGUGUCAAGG` is reported as -1.08.
`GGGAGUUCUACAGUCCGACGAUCAGUCCUGUGCUACACAUCGUAUGUACCGAAUCGGGGAAAGGGGUGGGGAAAAAGGGGAAAGUAUUAUGUUACGCCGUUCGGAUCUGCACUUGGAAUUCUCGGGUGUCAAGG` has a log2 enrichment of 0.595.
For `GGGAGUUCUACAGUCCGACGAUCCCUCAAGUCCUGUGCUACACAUCGUAUGUACCGAAUCGGGUGGGUGGGGUGGAAAGUAUUAUGUUACGCCGUUCGGAUCUGCACUUCCAGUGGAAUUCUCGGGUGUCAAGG`, the log2 enrichment was 1.33.
With `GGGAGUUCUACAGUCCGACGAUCCAAGUCCUGUGCUACACAUCGUAUGUACCGAAUCGGGGUUGGGGUUGGGUUGGGGAAAGUAUUAUGUUACGCCGUUCGGAUCUGCACUUCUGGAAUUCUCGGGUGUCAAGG` the log2 enrichment was 1.33.
With `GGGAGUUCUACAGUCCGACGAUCUGGGAGGUGGAUUUUGUUUAUUUUUUUAGCUCAUUUCCAGGGGUGGAAAUUUUUUUUUAAUAUGUGUCAUGAAUAAAGUUGUUUUUGAAAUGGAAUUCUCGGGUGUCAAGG` the log2 enrichment was 0.27.
The log2 enrichment of `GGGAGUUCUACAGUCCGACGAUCCAAGUCCUGUGCUACACAUCGUAUGUACCGAAUCGGCCCCGGGGCCCCGGCCCCGGAAAGUAUUAUGUUACGCCGUUCGGAUCUGCACUUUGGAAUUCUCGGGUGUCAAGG` is reported as -0.799.
`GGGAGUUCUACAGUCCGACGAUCUCCUGUGCUACACAUCGUAUGUACCGAAUCGGCCCCCCGGCCCCCCGGGGCCCCCCGGGGAAAGUAUUAUGUUACGCCGUUCGGAUCUGCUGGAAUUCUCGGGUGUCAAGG` has a log2 enrichment of -0.302.
The log2 enrichment of `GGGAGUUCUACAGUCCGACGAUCUAACUUUAGAGGAGGAUCUGAUGGAUCUGGCAGUGGACGUGGAUUUGGGGAUGGCUAUAAUGGGUAUGGAGGAGGACCUGGAGGUGGCAAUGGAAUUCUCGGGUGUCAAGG` is reported as 0.384.

Block 4 — method: competition protein-binding microarray; form: double-stranded DNA, one strand shown; matrix: in vitro; tested at: 2 µM; with: Pho4 competitor, 0.05 µM; reading: higher = stronger binding
Target: Centromere-binding protein 1, full length, His-tagged (CBF1, Saccharomyces cerevisiae, UniProt P17106, residues 1-351)
UniProt P17106, sequence (whole entry, looked up): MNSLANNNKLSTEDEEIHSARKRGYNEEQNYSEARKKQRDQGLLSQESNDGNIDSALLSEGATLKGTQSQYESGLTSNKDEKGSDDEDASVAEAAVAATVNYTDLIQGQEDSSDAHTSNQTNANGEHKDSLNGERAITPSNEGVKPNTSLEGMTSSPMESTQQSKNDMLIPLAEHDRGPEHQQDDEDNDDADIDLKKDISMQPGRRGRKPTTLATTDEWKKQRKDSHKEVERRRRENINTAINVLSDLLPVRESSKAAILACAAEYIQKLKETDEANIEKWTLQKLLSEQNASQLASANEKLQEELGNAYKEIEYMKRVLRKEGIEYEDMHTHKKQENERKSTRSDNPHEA
Setting: whole 60-bp probe, lowest competitor level
`AAACAAATATTAGCTCGCGTGGCCGAATGGCAACGCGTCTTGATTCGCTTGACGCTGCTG` has a fluorescence intensity of 80.3 a.u.
`AAATTACTAAGTTGTCACGCCACTTACCCCGTATGAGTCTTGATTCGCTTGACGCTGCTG` has a fluorescence intensity of 331 a.u.
`GAAAAAAGAAATGGACACGTGTAGGTCAAGGCATTAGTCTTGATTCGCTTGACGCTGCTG` has a fluorescence intensity of 1240 a.u.
For `AAATTACTAAGTTACCACGTGTTTTACCCCGTATGAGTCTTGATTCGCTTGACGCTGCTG`, the fluorescence intensity was 1760 a.u.
The fluorescence intensity of `GAGATTTAGCCTTTGACCGTGCCGATAGTTGTTTTCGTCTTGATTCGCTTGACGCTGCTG` is reported as 87.2 a.u.
The fluorescence intensity of `CTTTCCCGATCTTGGGACGTGGGTGTAGCACATTTGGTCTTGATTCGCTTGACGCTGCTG` is reported as 78.9 a.u.
For `GAATTTGAGGAGTTCCACGTGCCAGAAAGGATTATTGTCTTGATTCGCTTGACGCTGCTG`, the fluorescence intensity was 1030 a.u.
With `CTTCTGTAAATTTGGATTGTGGGTGGACGCGCCCCGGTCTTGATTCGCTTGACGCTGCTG` the fluorescence intensity was 88.1 a.u.
`TATATTGTTTGTTTGCACGTTTGATAAGTCCCTTAGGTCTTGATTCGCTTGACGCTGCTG` has a fluorescence intensity of 113 a.u.
For `TTAAGCCAAATTTAGCACATGCAGTGGCAGTGGCAAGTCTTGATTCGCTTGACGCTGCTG`, the fluorescence intensity was 110 a.u.
`CATACCCAACCTTGGTCGGTGGGTGAAGATATTTGTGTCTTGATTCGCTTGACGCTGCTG` has a fluorescence intensity of 59 a.u.
The fluorescence intensity of `TGCGCAACAACTTGTCACACGACTTTATGTCTAGAAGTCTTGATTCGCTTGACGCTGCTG` is reported as 150 a.u.
The fluorescence intensity of `CGTCCTAGCGATTGACGTGTGGGTGCCATGAGGAAGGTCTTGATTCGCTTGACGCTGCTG` is reported as 78.1 a.u.
`GTATATTAAAGGCTGCATGTGGCTACGTCTATTAAAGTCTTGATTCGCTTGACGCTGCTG` has a fluorescence intensity of 99.3 a.u.
With `AAGCTCGGCTAAGGCAACGTGCATCCCTCTAGAGACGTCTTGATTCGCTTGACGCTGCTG` the fluorescence intensity was 123 a.u.
`CGGGGTTAAGTTTGTCACCATACTTGCTTGCAGCAGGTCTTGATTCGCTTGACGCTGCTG` gave a fluorescence intensity of 72.6 a.u.
The fluorescence intensity of `CGTCCTAGTGATTGCCCTGTGGGTGCCATGAGGAAGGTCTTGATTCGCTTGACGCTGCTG` is reported as 74.7 a.u.
For `TGCGCAACAACTTTTCACGTGTTCTTATGTCTAGAAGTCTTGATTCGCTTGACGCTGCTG`, the fluorescence intensity was 1400 a.u.
`CAATCTTATCATTGCCACGTGCAAAAGCAACATCTTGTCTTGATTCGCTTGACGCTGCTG` has a fluorescence intensity of 1450 a.u.

Excerpt of the above (block 2):
`V11C`: “normalised enrichment score” -0.00446.
For `S2R`, “normalised enrichment score” read 0.188.
`P10F`: “normalised enrichment score” 0.145.
`V11G` — result for “normalised enrichment score”: 0.303.
For `R5V`, “normalised enrichment score” read -0.0464.
